# Experimental data of several laboratories.
# Protocols differ between the studies behind these lines.
# Target: Delta-type opioid receptor (OPRD1, Homo sapiens, UniProt P41143)
# Chain of UniProt P41143 (whole entry, looked up): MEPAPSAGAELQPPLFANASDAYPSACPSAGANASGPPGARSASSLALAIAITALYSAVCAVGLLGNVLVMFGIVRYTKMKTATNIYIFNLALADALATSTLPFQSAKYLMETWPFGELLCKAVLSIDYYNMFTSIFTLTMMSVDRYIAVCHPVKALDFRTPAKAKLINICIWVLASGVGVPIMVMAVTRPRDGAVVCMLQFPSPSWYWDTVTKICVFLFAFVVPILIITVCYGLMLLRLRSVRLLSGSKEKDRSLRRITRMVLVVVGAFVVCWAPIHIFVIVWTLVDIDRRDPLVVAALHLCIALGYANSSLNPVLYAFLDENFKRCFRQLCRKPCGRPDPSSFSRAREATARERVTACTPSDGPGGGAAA
Structure (SMILES),observed,mode,technique,cells,concentration,endpoint,result
"CC(=O)C12NC(C)(C)CC1(C)C(=O)C1=C2c2c(c3c4n2C(C)(C)CC2=C4C4(CC(C)(C)NC(C)(C4)C2=O)CC3(C)C)C(=O)C(C)(C)N1 (single isomer, unassigned; (-))",cAMP level,agonist,LANCE Ultra cAMP,CHO,50 µM,activation,1.7%
C[Si](C)(C)C[C@@H](CN)CC(=O)O,ligand displacement,,radioligand,,75 µM,inhibition,4%
CO[C@@H](C)c1c(NC(=O)Nc2cnc(-n3nccn3)c(C(F)(F)F)c2)cnc2sc(C)nc12,ligand displacement,,radioligand,,10 µM,inhibition,2.5%
COc1ncc2nc(C)n(Cc3ncc(S(N)(=O)=O)cc3F)c2c1-c1ccccc1,,agonist,cell-based,,10 µM,activation,-16.4%
Cc1[nH]nc2c1N=C(c1ccccc1Cl)c1cnc(N3CCOCC3)cc1N2,cell-free assay,,,,10 µM,inhibition,1%
COc1ccc(C#CC2=C[C@H]3C[C@@]4(OC(=O)C=C24)[C@H]2CC[C@H](C(OC)OC)N32)cc1,ligand displacement,,radioligand,,10 µM,inhibition,-3%
CC(=O)c1cnc(N)nc1N1CC[C@H]1c1nn2ccc(Cl)c2c(=O)n1-c1ccccc1,ligand displacement,,radioligand,,10 µM,inhibition,11%
CC(C)Cn1c(SCC(=O)N2CCc3ccccc3C2)nc2cc(Cl)ccc2c1=O,ligand displacement,,radioligand,,10 µM,inhibition,-8%
CCC(=O)N(C)c1ccc(Cl)c(Cl)c1,ligand displacement,,radioligand,,10 µM,inhibition,< 10%
COc1ccc(C(=O)Nc2c(-c3cccs3)nc3ccccn23)cc1,ligand displacement,,radioligand,,10 µM,inhibition,< 50%
COCC(=O)N1CCc2cc(-c3csc(NC(=O)c4cc(OC)cc(OC)c4)n3)ccc21,cell-free assay,,,,10 µM,inhibition,-8%
O=C1c2sc(-c3ccc(N4CCC(CO)CC4)nc3F)nc2CCN1c1cccnc1,ligand displacement,,radioligand,,1 µM,inhibition,0%
COc1ccc(S(=O)(=O)N2CCc3ccccc3C2)cc1N1CCN(C(=O)c2ccc(F)cc2C(F)(F)F)CC1,ligand displacement,,radioligand,,1 µM,inhibition,6.1%
Cn1ccc2cc(-n3c(=O)[nH]c4sc5c(c4c3=O)CCCC5)ccc21,ligand displacement,,,,10 µM,inhibition,5%
